# Measurements of several laboratories.
# Each numbered part is a random draw from the data of one study; scales do not carry over between parts.
# Sequence of UniProt Q8NE63 (whole entry, looked up): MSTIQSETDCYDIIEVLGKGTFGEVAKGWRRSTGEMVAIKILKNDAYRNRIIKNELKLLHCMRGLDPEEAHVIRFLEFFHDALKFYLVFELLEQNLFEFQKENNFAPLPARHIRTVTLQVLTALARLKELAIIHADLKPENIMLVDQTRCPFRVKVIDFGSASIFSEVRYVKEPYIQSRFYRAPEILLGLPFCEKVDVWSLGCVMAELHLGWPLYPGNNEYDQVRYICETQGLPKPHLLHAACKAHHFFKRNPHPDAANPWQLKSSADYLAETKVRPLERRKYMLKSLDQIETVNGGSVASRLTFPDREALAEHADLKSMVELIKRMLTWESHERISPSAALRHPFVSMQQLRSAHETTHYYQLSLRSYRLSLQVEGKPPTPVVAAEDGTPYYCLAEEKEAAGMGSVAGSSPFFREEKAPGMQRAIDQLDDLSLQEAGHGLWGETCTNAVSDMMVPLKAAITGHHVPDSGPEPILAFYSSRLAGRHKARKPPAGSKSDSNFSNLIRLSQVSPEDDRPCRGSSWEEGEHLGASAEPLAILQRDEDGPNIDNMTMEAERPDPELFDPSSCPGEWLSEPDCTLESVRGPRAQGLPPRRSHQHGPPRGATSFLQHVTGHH
# Sequence of UniProt Q9UEE5 (whole entry, looked up): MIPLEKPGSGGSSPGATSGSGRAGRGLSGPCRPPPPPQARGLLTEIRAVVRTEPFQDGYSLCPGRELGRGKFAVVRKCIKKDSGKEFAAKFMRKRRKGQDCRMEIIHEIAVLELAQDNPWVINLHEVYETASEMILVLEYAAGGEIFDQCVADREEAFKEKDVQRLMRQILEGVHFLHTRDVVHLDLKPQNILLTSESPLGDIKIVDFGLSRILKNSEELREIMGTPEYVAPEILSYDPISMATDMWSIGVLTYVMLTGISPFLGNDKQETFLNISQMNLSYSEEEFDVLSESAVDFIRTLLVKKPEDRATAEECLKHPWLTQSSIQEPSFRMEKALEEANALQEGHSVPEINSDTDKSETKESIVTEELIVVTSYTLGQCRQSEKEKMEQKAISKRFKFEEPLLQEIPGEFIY
# Sequence of UniProt Q9H2X6 (whole entry, looked up): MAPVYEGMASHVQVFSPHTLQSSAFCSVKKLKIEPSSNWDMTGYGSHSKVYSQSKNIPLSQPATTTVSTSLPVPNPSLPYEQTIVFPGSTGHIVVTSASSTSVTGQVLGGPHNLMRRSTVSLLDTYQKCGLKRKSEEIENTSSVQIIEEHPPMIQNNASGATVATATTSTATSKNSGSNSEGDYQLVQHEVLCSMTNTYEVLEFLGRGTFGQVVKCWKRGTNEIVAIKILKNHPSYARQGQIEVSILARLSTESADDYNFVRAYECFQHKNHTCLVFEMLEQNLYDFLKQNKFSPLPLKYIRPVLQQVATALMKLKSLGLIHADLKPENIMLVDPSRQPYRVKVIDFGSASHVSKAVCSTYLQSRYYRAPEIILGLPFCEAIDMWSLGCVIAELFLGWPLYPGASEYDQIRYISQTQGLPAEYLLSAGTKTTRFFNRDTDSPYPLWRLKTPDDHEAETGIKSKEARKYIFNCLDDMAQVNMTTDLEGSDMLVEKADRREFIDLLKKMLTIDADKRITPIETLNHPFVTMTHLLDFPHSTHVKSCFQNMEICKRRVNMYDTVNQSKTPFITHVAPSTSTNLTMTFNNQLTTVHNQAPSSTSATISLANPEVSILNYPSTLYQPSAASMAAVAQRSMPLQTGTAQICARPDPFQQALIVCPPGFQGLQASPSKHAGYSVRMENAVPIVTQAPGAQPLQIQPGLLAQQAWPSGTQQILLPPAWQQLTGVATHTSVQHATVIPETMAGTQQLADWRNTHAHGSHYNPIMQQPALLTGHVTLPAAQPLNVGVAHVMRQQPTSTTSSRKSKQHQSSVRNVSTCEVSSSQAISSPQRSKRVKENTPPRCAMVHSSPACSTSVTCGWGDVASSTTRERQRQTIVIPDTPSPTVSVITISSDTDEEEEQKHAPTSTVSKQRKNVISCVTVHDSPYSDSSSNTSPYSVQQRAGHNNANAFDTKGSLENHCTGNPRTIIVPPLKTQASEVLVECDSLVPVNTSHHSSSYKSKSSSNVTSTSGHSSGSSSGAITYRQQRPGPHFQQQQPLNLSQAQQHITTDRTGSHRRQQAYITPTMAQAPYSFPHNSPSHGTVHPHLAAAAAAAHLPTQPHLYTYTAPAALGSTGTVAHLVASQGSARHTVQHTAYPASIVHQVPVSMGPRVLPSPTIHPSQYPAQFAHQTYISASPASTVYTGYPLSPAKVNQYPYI
# Sequence of UniProt P11802 (whole entry, looked up): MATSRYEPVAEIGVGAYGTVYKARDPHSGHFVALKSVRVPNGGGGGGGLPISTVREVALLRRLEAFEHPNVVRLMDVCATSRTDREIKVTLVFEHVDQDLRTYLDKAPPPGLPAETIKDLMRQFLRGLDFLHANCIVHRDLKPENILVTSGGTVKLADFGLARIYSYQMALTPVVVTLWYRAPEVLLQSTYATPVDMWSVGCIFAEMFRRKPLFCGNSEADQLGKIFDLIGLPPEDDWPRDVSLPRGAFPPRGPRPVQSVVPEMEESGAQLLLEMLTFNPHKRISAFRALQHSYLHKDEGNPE
# Sequence of UniProt P30530 (whole entry, looked up): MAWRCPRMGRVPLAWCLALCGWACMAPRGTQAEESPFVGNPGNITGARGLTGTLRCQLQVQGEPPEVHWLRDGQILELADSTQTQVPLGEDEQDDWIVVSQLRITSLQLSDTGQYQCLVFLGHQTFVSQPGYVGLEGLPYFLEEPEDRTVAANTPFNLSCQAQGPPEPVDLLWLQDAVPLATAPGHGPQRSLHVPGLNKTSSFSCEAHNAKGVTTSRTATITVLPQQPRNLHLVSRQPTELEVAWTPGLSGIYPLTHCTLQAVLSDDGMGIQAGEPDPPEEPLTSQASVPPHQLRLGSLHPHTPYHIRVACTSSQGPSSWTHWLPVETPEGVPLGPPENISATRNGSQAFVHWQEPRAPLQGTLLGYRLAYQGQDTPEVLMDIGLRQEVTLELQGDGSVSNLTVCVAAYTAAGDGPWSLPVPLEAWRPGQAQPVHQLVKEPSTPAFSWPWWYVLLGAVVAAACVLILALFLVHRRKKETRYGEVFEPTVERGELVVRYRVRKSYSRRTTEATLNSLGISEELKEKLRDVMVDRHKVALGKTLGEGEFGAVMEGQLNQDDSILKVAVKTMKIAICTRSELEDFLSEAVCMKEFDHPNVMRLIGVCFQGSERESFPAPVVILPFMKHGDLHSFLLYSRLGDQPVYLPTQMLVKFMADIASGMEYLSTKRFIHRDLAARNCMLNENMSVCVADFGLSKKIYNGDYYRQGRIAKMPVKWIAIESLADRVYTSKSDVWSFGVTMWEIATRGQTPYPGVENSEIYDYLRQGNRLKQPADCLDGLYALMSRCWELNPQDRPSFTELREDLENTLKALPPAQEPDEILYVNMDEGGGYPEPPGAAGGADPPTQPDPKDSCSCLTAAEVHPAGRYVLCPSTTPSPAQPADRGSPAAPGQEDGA
# Sequence of UniProt Q15835 (whole entry, looked up): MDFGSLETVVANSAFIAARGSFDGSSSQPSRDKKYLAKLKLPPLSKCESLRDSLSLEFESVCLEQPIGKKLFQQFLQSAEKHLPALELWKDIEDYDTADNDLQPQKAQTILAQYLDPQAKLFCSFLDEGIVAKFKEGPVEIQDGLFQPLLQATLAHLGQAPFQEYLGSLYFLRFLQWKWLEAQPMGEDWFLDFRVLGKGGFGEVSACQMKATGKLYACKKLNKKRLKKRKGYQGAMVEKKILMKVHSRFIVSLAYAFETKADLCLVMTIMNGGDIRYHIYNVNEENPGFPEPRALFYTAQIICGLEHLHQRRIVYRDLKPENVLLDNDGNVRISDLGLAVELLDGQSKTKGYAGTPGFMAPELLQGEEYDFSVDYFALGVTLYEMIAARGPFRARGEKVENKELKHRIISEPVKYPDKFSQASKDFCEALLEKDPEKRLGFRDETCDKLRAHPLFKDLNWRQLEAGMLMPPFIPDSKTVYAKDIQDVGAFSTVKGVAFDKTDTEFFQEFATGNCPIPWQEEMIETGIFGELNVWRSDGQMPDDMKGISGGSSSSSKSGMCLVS
# Sequence of UniProt P54760 (whole entry, looked up): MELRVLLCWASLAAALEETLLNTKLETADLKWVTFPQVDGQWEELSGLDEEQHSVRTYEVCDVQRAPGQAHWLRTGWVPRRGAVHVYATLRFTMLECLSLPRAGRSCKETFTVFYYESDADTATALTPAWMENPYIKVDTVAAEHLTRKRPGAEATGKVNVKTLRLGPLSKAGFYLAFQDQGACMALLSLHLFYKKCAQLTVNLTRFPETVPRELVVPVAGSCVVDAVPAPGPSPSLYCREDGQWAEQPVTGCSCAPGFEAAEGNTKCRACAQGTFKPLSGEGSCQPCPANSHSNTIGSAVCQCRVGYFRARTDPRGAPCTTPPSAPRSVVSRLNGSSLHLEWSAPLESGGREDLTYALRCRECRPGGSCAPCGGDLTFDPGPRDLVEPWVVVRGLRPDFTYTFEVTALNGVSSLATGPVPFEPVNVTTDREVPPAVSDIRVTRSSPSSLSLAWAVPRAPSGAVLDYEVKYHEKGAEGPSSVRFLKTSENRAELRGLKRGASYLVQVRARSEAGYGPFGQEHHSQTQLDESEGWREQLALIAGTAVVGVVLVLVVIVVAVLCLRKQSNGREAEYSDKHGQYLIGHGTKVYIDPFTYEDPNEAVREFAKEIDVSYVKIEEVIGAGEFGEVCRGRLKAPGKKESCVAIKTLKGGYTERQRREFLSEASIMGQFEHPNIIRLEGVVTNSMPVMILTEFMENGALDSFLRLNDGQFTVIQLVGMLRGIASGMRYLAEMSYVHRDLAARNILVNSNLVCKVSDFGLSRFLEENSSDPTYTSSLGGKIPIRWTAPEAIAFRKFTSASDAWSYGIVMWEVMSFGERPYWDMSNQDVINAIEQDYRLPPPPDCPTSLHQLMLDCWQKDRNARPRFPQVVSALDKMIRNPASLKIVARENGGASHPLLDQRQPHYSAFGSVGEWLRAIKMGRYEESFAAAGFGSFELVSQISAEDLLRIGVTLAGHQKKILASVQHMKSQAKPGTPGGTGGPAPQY

# Block 1
# Structure (SMILES): CCOCCn1cc(C(=O)Nc2ccc(-n3nc(-c4cccnc4)cc3C(F)(F)F)cn2)ccc1=O
# Effect on: cell-free assay
# Method: competition with immobilised ligand
# Tested at: 1 µM
target,remaining binding [%]
"LRRK2 (Homo sapiens, UniProt Q5S007)",100
"CDK18 (Homo sapiens, UniProt Q07002)",98
"FGR (Homo sapiens, UniProt P09769)",100
"WNK1 (Homo sapiens, UniProt Q9H4A3)",82
"Insulin receptor (INSR, Homo sapiens, UniProt P06213)",98
"MUSK (Homo sapiens, UniProt O15146)",99
"MAK (Homo sapiens, UniProt P20794)",89
"PIK3CA (Homo sapiens, UniProt P42336, I800L)",71
"STK17A (Homo sapiens, UniProt Q9UEE5)",100
"CAMK1G (Homo sapiens, UniProt Q96NX5)",100
"TRPM6 (Homo sapiens, UniProt Q9BX84)",73
"GRK1 (Homo sapiens, UniProt Q15835)",74
"HIPK4 (Homo sapiens, UniProt Q8NE63)",100
"SLK (Homo sapiens, UniProt Q9H2G2)",100

# Block 2
# SMILES: O=C(O)/C=C/c1cc(Br)c(Br)c(Br)c1Br
# Effect on: enzyme activity
# Mode: inhibitor
# Tested at: 0.5 µM
# Relative to: control
target,remaining activity [%]
"EPHB1 (Homo sapiens, UniProt P54762)",95.2
"MAP4K4 (Homo sapiens, UniProt O95819)",63.5
"BLK (Homo sapiens, UniProt P51451)",95.1
"EPHB4 (Homo sapiens, UniProt P54760)",81.2
"STK17A (Homo sapiens, UniProt Q9UEE5)",84.6
"PHKG1 (Homo sapiens, UniProt Q16816)",87.6
"CAMK2B (Homo sapiens, UniProt Q13554)",56.1
"TSSK2 (Homo sapiens, UniProt Q96PF2)",98.1
"ABL1 (Homo sapiens, UniProt P00519)",81.5
"AXL (Homo sapiens, UniProt P30530)",90.9
"DYRK3 (Homo sapiens, UniProt O43781)",100
"RPS6KA6 (Homo sapiens, UniProt Q9UK32)",86.9
"WNK3 (Homo sapiens, UniProt Q9BYP7)",89.8
"Cyclin-dependent kinase 1, with cyclin B (CDK1, Homo sapiens, UniProt P06493)",62.7
"SRMS (Homo sapiens, UniProt Q9H3Y6)",89.3
"HIPK4 (Homo sapiens, UniProt Q8NE63)",102
"HIPK2 (Homo sapiens, UniProt Q9H2X6)",82.2
"MAPKAPK3 (Homo sapiens, UniProt Q16644)",86.3
"PDPK1 (Homo sapiens, UniProt O15530)",96.2
"Cyclin-dependent kinase 4, with cyclin D3 (CDK4, Homo sapiens, UniProt P11802)",97.9

# Block 3
# Host: mouse
# Sample: microsomes or S9
# Tested at: 2 µM
# Time: 0.5 h
Compound,remaining compound
O[C@@H]1C[C@@H](c2nnc3n2CCN(Cc2cccc4[nH]ccc24)C3)N(Cc2ccccc2)C1,2.29%
Cc1nc(N2CCN(C)CC2)nc2c1C(=O)CC(c1ccco1)C2 (stereo not drawn),0.114%
Cc1c(CN2C[C@H]3CC[C@@H](C2)NC3)oc2ccccc12,46%
Cc1cnc(CC2CCCN(C(=O)NC(C)(C)C)C2)n1CC1CC1 (stereo not drawn),5.49%
Cn1c(=O)c(-c2ccc3ccccc3n2)cc2cc(Br)ccc21,0.338%

# Block 4
# Cell line: A-375
# Tested at: 100 µM
# Time: 18 h
SMILES,viability [%]
COc1cnc(NS(=O)(=O)c2ccc(N)cc2)nc1,88.8
C[C@H]1C[C@H]2[C@@H]3CCC4=CC(=O)C=C[C@]4(C)[C@@]3(F)[C@@H](O)C[C@]2(C)[C@@]1(O)C(=O)CO,88.9
C[C@@H]1[C@H](O)[C@@H](C)/C=C/C=C/C=C/C=C/C=C/C=C/C=C/[C@H](O[C@@H]2O[C@H](C)[C@@H](O)[C@H](N)[C@@H]2O)C[C@@H]2O[C@](O)(C[C@@H](O)C[C@@H](O)[C@H](O)CC[C@@H](O)C[C@@H](O)CC(=O)O[C@H]1C)C[C@H](O)[C@H]2C(=O)O,94.4
C#C[C@]1(O)CC[C@H]2[C@@H]3CCC4=Cc5oncc5C[C@]4(C)[C@H]3CC[C@@]21C,6.98
CCC(=O)OCC(=O)[C@@]1(OC(=O)CC)[C@@H](C)C[C@H]2[C@@H]3CCC4=CC(=O)C=C[C@]4(C)[C@@]3(Cl)[C@@H](O)C[C@@]21C,82.5
NC(N)=Nc1nc(CSCCC(N)=NS(N)(=O)=O)cs1,108

# Some of these lines once more (block 1):
target,remaining binding [%]
"FGR (Homo sapiens, UniProt P09769)",100
"WNK1 (Homo sapiens, UniProt Q9H4A3)",82
"MUSK (Homo sapiens, UniProt O15146)",99
"CDK18 (Homo sapiens, UniProt Q07002)",98
